Experimental data collected from several papers.
Each line is one published result; not all experiments were run side by side.

| Structure (SMILES) | tested on | assay | test system | setting | how to read | endpoint | value |
| --- | --- | --- | --- | --- | --- | --- | --- |
| Cc1ccc(Nc2nccc(N(C)c3ccc4c(C)n(C)nc4c3)n2)cc1S(N)(=O)=O | MAPK1 (human) | kinase activity, inhibitor |  | 10 µM |  | inhibition | -3% |
| O=C(/C=C/c1ccc(O)c(O)c1)c1ccc(O)cc1O | HIF-1, mouse | reporter gene | NIH3T3, HIF-1 luciferase transfected | concentration not given, together with: cobalt chloride |  | inhibition | inactive |
| COc1cc2ncnc(Nc3ccc(F)c(Cl)c3)c2cc1NC(=O)/C=C/CN1CCCCC1 | NLRP3 inflammasome (mouse) |  | mouse BMDM | 10 µM |  | inhibition | 67% |
| N#Cc1ccc(COc2cccc(C3CCN(Cc4nc5ccc(C(=O)O)cc5n4C[C@@H]4CCO4)CC3)n2)c(F)c1 | chloride channel |  |  | 10 µM |  | inhibition | 80% |
| N=C(NCCCSC[C@H]1O[C@@H](n2cnc3c(NCCCc4ccccc4)ncnc32)[C@H](O)[C@@H]1O)NC1CCCC1 | CamA DNA adenine methyltransferase (Clostridioides difficile) | enzyme activity, inhibitor, MTase-Glo luminescence (SAH) |  | 10 µM, 3 min, pH 7.5, 22 °C, together with: SAM 40 µM |  | inhibition | < 10% |
| O=C(O)CCCCCCCCCCC(=O)O |  | binding, equilibrium dialysis LC-MS |  | 5 µM, thermostabilized A2AR-BRIL construct | relative to: no-protein control, direction not given | z-scored log2 fold change | -0.341 |
| N=C(NCCCSC[C@H]1O[C@@H](n2cnc3c(NCCCc4ccccc4)ncnc32)[C@H](O)[C@@H]1O)NCCc1ccccc1 | CamA DNA adenine methyltransferase (Clostridioides difficile) | enzyme activity, inhibitor, MTase-Glo luminescence (SAH) |  | 10 µM, 3 min, pH 7.5, 22 °C, together with: SAM 40 µM |  | inhibition | < 10% |
| Cc1cc(F)cc2c(CCC(=O)N[C@@H]3C(=O)NC[C@H]3O)c(-c3ccc(F)cc3)[nH]c12 | L-type calcium channel, benzothiazepine site | binding |  | 10 µM |  | inhibition | -15% |
| CCCc1cc(C)[nH]c(=O)c1CNC(=O)c1cc(-c2ccc(N3CCN(C(C)C)CC3)nc2)cc2c1cnn2C(C)C | panel of 50 kinases | enzyme activity, inhibitor |  | 10000 nM |  | inhibition | ≤ 20% |
| CN1CCN(c2ccc(C(=O)Nc3n[nH]c4ccc(Cc5cc(F)cc(F)c5)cc34)c(NC3CCOCC3)c2)CC1 | NLRP3 inflammasome (mouse) |  | mouse BMDM | 10 µM |  | inhibition | 95.2% |
| CCN(CC)CCNC(=O)c1c(C)[nH]c(/C=C2\C(=O)Nc3ccc(F)cc32)c1C | MAPK1 (human) | kinase activity, inhibitor |  | 0.3 µM |  | inhibition | -1% |
| COc1ccc(-c2nc(N3CCOCC3)c3sc(CN(C)c4ncc(C(=O)NO)cn4)cc3n2)cn1 | NLRP3 inflammasome (mouse) |  | mouse BMDM | 10 µM |  | inhibition | 12.9% |
| C#CCNC(=N)NCCCSC[C@H]1O[C@@H](n2cnc3c(NCCCc4ccccc4)ncnc32)[C@H](O)[C@@H]1O | CamA DNA adenine methyltransferase (Clostridioides difficile) | enzyme activity, inhibitor, MTase-Glo luminescence (SAH) |  | 10 µM, 3 min, pH 7.5, 22 °C, together with: SAM 40 µM |  | inhibition | < 10% |
| Nc1nc(=O)c2c([nH]1)NCC(CNc1ccc(C(=O)N[C@@H](CCC(=O)O)C(=O)O)cc1)N2C=O (mixture of isomers) |  | binding, equilibrium dialysis LC-MS |  | 5 µM, thermostabilized A2AR-BRIL construct | relative to: no-protein control, direction not given | z-scored log2 fold change | 0.111 |
